Measured values gathered from unrelated publications.
Numbered parts are unrelated; each lists some results of a single study. Changes are numbered by the printed parent chain.

Set 1
Target: ABI1, truncated, D143A, DHFR fusion (Arabidopsis thaliana, UniProt P49597)
Technique: DHFR PCA, dose-response
Sample: yeast
Notes: Hill fit, mean, not affinity
With: (+)-ABA, dose series
Direction: lower = more sensitive
Starting sequence: PYL1, truncated, DHFR fusion (Arabidopsis thaliana, UniProt Q8VZS8); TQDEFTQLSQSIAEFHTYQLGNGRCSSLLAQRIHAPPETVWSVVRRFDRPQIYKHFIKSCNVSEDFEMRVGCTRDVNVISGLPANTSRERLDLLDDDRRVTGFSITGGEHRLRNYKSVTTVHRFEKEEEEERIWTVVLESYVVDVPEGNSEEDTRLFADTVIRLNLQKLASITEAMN
Variant	ABA EC50 [µM]
A13Y	9.26
V100A	4.07
K168A	3.23
V43H	43.1
E152T	4.21
E4L	2.12
E129S	2.29
M176G	2
Q19D	2.6
S11N	6.94
W134K	13.7
Q31E	28.2
V62Q	129
E14G	51.9
H34V	6.13
E38W	15.7
Y53F	15.8
L8I	11
S11T	2.28
R98C	27.9

Set 2
Target: RNA binding protein fox-1 homolog 2, RRM domain, GST-SBP tag (RBFOX2, Homo sapiens, UniProt O43251-10, residues 100-194)
Technique: RNA Bind-n-Seq
Form: RNA
Sample: in vitro
Concentration: 365 nM
Notes: natural RNA segment, single round, ends assumed
Reference: no-protein control
Direction: higher = stronger binding
Construct (chain): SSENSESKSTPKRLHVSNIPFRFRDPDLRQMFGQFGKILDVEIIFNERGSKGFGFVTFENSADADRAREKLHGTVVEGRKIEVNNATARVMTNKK
Sequence	RBNS enrichment (R)
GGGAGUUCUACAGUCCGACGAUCAGGCACAGAUGGGGCCUUGAAACGCUUUGUCAUGCUUCUUCAGUACCAUGGAUUUGAAAUGAACUCAUCCUUGCUGUGAGCAUCCAGGAGCCCUUGAGAAGUUUAUCUAUUGGAAUUCUCGGGUGCCAA	0.199
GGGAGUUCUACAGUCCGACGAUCGGCCAAUAUAGGAUUAAUAUCUGUGUUCCAGCUUCAGCCAGAACGAUAUGUCUGUCCAUCUUUCUCCUUUCUUCCAGCACACACAGCUAAGAGAUAAGAAGGCUGCAAGGUGGAAUUCUCGGGUGCCAA	0.336
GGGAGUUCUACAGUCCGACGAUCCAUGCAUGCCUGCACUCCAGAGUCAGGUGCCAAGCUUGCUUGUCCUUCCCUGCCUCCAGGUCAGGGAGCAGCUGCAGUGAGGGUGGGGAGGUGAGGGCUUUGUACACGUGUGGAAUUCUCGGGUGCCAA	9.6
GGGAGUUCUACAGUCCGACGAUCCAAGGACUGCAAGAUUAUUUGAUAAAGAGUAGCAUGAAUCUUGUGCUCUAAUAUUACACAGUAAGUUCAAAGAAAGGAUGUAAGUCAAAGACUUGUUACAUAGAGGGAAAUGGAAUUCUCGGGUGCCAA	18.3
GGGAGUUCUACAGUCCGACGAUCAUGUUCUGUUUUUAUAACCUACCAAAAGGAAACUAGAGGCUUCUUGGUGAAGAGCAUUUUUGUGAAGUGGGUUCUGCAAGGAGCCUAUAAAGCCAAGGGUGGUGUCCAUUUGGAAUUCUCGGGUGCCAA	0.338
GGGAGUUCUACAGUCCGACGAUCGCAUAGCAGUCAUUUGGAACGAUCUCGUGGGGUGGGACUAAGCCAUAAUGAUGUGUCUGGCUCAAGCAGCAAUGCUGUCCCUGCUCAGAACUGUGGUCUCUGUGGAGAACUGGAAUUCUCGGGUGCCAA	0.387
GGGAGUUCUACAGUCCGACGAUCUUAAGUACAGAACUUGGUUUCUAACCGUAUUUAGUUUUAUAUGUGUAUUCAGACAGUUAGAGUUUUGGAAGCACACUGGUGAGUAGCUUUUUGCCCCUCCUUCCUUAGCAUGGAAUUCUCGGGUGCCAA	0.929
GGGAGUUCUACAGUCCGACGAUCUAAAAAUAAACUAGUAAAAGAUUAUCAUGUUUUAUGACCAUCAACGGAAUCAUUUUAAUGUGUUCCUCAGAACGUAUGUAUUGACUUCUACAAUAAAUGACUGGCUGGUGUGGAAUUCUCGGGUGCCAA	0.431
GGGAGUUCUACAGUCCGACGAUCCAGUGCCGAGUUGGCGGGAAAAGCAAAUUCUUUUGAAGUCUUAGUCUUUCCCUCAGUAGCGGUUUCUUUCAGGUUAACAAGAGGCAUUUGUGCACACACACAGGGCUCUUUGGAAUUCUCGGGUGCCAA	0.319
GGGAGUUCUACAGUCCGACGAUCGGGGCCUUGCUCGGCACCAGGACUAUUGGGCUGUGUUUAAACGGCCCAAAUCUUAAUUUUUCUCUUUUUUUUCUUUGGCUUUGGGAACGGCAUAAUUUUACACCAUUUUAUGGAAUUCUCGGGUGCCAA	0.381
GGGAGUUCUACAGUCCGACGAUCUCAUGGGUGCUCCUGGCAACUUGCUUGAGGAAGAUAGGUCAGAAAGCAGAGUGGACCAACCGUUCAAUGUUUUACAAGCAAAACAUACACUAAGCAUGGUCUGUAGCUAUUGGAAUUCUCGGGUGCCAA	1.32
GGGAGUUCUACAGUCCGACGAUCCUUCCUUUAGCAAAAAUUACUAUAAAGUUCAGGACAGUUUGAAAUAAAACCCAGGAAACAAGAUUAAUGUGAGCAGUUCUCCAAGAUCCUAACUGGUGGGACAUAAACUAUGGAAUUCUCGGGUGCCAA	0.283

Set 3
Target: Interferon regulatory factor 5, full length, phosphomimetic (IRF5, Homo sapiens, UniProt Q13568-2, residues 1-514, S451D/S453D/S456D/S462D)
Technique: protein-binding microarray
Form: double-stranded DNA, one strand shown
Sample: in vitro
Concentration: 940 nM top
Notes: 60-bp whole probe
With: salmon DNA 0.4 mg/ml
Reference: random background probes
Direction: higher = stronger binding
Shared flanks, not repeated: GCCTAGCAC … GTCTTGATTCGCTTGACGCTGCTG
Sequence	fitted relative affinity
TGAGAACTGAGTATCGATTAGTGCTAG	4.79 z-score
TTAGAAATGAGTCTCGATTAGTGCTAG	3.16 z-score
TAAGATATCGGGTTTCGATTAGTGCTA	5.7 z-score
GACGGGATCGGACTGGGGACGTGCTAG	-0.188 z-score
TCAGTCCTCACTTCCTTCTGGTGCTAG	0.929 z-score
TTAGGTTACCTACTGCTTTAGTGCTAG	-0.294 z-score
TCACATTTCACAGTTAAACTGTGCTAG	0.589 z-score
TCAGAACTGAGTTTCGATTAGTGCTAG	7.76 z-score
GACGGTATCGGTATCGGCACGTGCTAG	9.02 z-score
GATGAACTGAGACTGGAGACGTGCTAG	-0.0328 z-score
TTGGATTTCGGGTTTCGATTAGTGCTA	5.92 z-score
TTAGGACTGCTACTTCTTTAGTGCTAG	-0.575 z-score
GACGAACTGAGAATGGAGACGTGCTAG	0.0515 z-score
GACGGTATCCTTTTCCTTACGTGCTAG	0.432 z-score
AAAAAAAATGGAAATCTACCCGTGCTA	-0.064 z-score
GACGATATCGGGTATCGTGACGTGCTA	0.275 z-score
TTAGGTATCGGCTTTCGGTTAGTGCTA	6.22 z-score
GAAGATTTCGATTACAAAAAGTGCTAG	1.78 z-score
GACGGACTGCTTATCCTGAAGTGCTAG	-0.35 z-score
GACGGTTCCCTTTTCCTGTCGTGCTAG	2.17 z-score
TTAGGTAACGGTTTCGGTTAGTGCTAG	7.13 z-score
TTAGAACTGGGGTTCCGATTAGTGCTA	0.556 z-score
GACGATATCGGGATTGGAGACGTGCTA	-0.345 z-score
GACGATTTCAGTCTCGAGCCGTGCTAG	0.947 z-score
TTAGAACTGGGGACTGGATTCGTGCTA	-0.208 z-score

Set 4
Target: CCNB1, cyclin fold, Cln2 fusion (human)
Technique: yeast growth competition, sequencing
Sample: yeast
Notes: weak parent motif
Reference: not given
Direction: higher = stronger binding
Starting sequence: CDKN1A docking peptide (human); SKACRRLFGPVDS
Variant	normalised enrichment score
SKWCRRLFGPVDS [A3W]	0.344
SKACRRLFGPNDS [V11N]	0.268
SKAARRLFGPVDS [C4A]	0.0701
SKACRRLFPPVDS [G9P]	0.444
SKACRRLCGPVDS [F8C]	0.224
SKACNRLFGPVDS [R5N]	0.229
SKACRRLFGPADS [V11A]	0.787
SKACRRLWGPVDS [F8W]	-0.0355
SKACRHLFGPVDS [R6H]	0.103
SKRCRRLFGPVDS [A3R]	0.121
SKDCRRLFGPVDS [A3D]	-0.178
SKACRVLFGPVDS [R6V]	0.216
SKFCRRLFGPVDS [A3F]	-0.0986
SLACRRLFGPVDS [K2L]	0.194
SKACRKLFGPVDS [R6K]	0.429
SKPCRRLFGPVDS [A3P]	0.452
SKACRELFGPVDS [R6E]	0.0679
SKACRRLNGPVDS [F8N]	0.0605
SPACRRLFGPVDS [K2P]	0.244
SKACRRVFGPVDS [L7V]	0.553

Set 5
Target: Sal-like protein 4, full length isoform A (SALL4, Homo sapiens, UniProt Q9UJQ4, residues 1-1053)
Sequence of UniProt Q9UJQ4 (whole entry, looked up): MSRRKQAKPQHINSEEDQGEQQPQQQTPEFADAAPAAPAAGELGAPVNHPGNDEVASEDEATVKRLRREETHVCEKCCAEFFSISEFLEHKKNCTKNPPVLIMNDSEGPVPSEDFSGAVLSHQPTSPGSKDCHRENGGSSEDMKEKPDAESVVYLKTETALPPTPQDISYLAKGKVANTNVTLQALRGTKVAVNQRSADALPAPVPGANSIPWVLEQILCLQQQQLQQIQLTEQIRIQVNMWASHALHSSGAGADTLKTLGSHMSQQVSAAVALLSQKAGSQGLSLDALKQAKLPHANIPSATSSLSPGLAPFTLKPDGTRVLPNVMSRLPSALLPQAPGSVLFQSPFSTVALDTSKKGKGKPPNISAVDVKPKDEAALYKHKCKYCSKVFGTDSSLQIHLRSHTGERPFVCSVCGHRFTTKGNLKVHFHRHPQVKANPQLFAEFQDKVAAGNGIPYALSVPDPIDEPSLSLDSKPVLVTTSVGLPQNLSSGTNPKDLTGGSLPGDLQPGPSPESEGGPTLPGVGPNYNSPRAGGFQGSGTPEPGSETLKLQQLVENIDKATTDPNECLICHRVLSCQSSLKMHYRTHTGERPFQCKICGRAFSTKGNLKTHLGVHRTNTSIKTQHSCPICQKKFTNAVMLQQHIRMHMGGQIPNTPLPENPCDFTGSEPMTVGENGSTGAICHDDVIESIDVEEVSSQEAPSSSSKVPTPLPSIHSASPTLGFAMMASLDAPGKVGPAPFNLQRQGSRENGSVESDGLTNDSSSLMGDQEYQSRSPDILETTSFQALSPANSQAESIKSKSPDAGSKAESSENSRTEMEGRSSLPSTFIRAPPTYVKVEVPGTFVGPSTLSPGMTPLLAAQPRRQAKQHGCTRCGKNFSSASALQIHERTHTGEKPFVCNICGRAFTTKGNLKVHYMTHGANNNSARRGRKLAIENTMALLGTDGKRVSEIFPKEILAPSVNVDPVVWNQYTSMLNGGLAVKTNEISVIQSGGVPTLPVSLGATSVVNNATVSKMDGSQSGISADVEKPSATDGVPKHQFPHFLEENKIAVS
Technique: universal PBM
Form: double-stranded DNA, one strand shown
Sample: in vitro
Concentration: 600 nM
Notes: 8-mer, flanks averaged, mean of replicates
Direction: higher = stronger binding
Sequence	E-score
CTTGACTC	-0.122
AGCCCGGG	-0.42
CTATCTAC	0.0677
ACGAAGTC	0.0544
AATTTAAG	0.235
AAATAACC	0.209
CAGCCATG	-0.103
GGCCAAGA	-0.263
CACGGTTC	-0.255
CCCAGGGA	-0.351
CACGTCCA	-0.149
CTCGATGC	-0.128
AACGGTAA	0.0141
GAACGGCA	-0.075
ATGGAAGG	0.0372
CTTTGTTC	0.054
AGAGGGCT	-0.201
ATTTATAA	0.382
CACCCATC	-0.0122
GGCGGGAC	-0.323
GTCTACAC	-0.15
CTATTAGC	0.214
AACAGTCG	-0.0565
CACTGTCG	-0.209
GTCCCAGA	-0.242

Set 6
Target: DBP, bZIP domain (human)
Technique: DHFR protein complementation
Sample: yeast
Notes: single substitutions, most at no-binding floor
Reference: wild-type JUN-FOS pair
Direction: higher = stronger binding
Starting sequence: JUN, bZIP domain (human); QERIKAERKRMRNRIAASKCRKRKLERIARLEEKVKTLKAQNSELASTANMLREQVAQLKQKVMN; partner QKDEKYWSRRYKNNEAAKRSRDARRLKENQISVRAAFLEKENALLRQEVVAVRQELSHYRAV
Variant	binding fitness
V56C	-1.12 natural log
S43G	-1.31 natural log
T48N	-1.23 natural log
N42D	-1.56 natural log
T48C	-1.45 natural log
L45N	-1.45 natural log
A49K	-1.33 natural log
L45H	-1.51 natural log
R30V	-1.38 natural log
E44V	-1.45 natural log
S47Y	-1.24 natural log
A29W	-1.52 natural log
K34R	-1.45 natural log
A46V	-1.36 natural log
A40L	-1.29 natural log
T48G	-1.45 natural log
L52H	-1.51 natural log
Q55H	-1.33 natural log

Excerpt of the above (set 3):
Sequence	fitted relative affinity
GATGAACTGAGACTGGAGACGTGCTAG	-0.0328 z-score
TGAGAACTGAGTATCGATTAGTGCTAG	4.79 z-score
GACGATATCGGGTATCGTGACGTGCTA	0.275 z-score
TTAGAACTGGGGTTCCGATTAGTGCTA	0.556 z-score
GAAGATTTCGATTACAAAAAGTGCTAG	1.78 z-score
TCAGTCCTCACTTCCTTCTGGTGCTAG	0.929 z-score
GACGATATCGGGATTGGAGACGTGCTA	-0.345 z-score
TTAGAACTGGGGACTGGATTCGTGCTA	-0.208 z-score
TCACATTTCACAGTTAAACTGTGCTAG	0.589 z-score
GACGGGATCGGACTGGGGACGTGCTAG	-0.188 z-score
AAAAAAAATGGAAATCTACCCGTGCTA	-0.064 z-score
TAAGATATCGGGTTTCGATTAGTGCTA	5.7 z-score
TTAGGTATCGGCTTTCGGTTAGTGCTA	6.22 z-score
